Results pooled from the literature.
Protocols differ between the studies behind these lines. Numbers after ± are the reported error.
CNR1: Cannabinoid receptor 1 (CNR1, Homo sapiens, UniProt P21554)
Sequence of UniProt P21554 (whole entry, looked up): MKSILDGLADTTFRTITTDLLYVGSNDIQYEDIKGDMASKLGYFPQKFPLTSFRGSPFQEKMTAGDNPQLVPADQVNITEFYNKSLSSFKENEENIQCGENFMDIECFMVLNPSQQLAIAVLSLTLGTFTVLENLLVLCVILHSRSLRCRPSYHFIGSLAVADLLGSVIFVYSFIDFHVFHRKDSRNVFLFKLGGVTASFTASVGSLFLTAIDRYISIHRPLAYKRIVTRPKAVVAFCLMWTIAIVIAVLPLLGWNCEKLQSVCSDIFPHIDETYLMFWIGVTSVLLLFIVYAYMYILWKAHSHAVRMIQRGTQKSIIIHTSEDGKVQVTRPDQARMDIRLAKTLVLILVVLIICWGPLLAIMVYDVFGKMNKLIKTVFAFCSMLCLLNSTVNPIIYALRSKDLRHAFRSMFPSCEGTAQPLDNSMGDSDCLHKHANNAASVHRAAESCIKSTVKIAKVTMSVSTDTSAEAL
Kir3.1/Kir3.4: Kir3.1/Kir3.4 (Homo sapiens, UniProt P48544+P48549)
Sequence of UniProt P48549 (whole entry, looked up): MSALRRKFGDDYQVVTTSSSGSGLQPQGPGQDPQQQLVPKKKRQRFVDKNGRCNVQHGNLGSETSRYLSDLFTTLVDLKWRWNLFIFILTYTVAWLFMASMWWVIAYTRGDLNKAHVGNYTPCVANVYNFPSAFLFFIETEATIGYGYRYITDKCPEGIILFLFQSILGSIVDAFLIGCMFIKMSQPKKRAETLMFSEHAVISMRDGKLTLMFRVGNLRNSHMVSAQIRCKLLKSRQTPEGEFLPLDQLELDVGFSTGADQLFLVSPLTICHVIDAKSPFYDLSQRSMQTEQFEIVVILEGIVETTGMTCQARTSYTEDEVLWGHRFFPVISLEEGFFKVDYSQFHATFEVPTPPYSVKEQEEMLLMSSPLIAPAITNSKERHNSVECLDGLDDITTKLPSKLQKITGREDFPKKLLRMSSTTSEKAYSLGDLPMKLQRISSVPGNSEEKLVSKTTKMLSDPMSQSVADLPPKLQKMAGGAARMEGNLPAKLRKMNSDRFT
Sequence of UniProt P48544 (whole entry, looked up): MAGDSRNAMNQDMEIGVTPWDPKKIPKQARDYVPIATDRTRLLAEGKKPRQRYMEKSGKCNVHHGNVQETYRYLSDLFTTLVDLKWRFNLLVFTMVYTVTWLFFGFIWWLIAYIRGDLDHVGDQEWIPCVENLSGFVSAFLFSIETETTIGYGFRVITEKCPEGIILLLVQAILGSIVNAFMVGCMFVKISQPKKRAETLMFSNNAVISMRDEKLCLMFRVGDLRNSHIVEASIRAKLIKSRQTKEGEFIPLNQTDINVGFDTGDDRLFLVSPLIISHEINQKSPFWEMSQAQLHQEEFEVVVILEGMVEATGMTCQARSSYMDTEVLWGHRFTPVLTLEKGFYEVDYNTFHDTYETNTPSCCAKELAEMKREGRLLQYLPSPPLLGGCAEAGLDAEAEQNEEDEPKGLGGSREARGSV
Sequence of UniProt Q8TDS7 (whole entry, unmodified, looked up): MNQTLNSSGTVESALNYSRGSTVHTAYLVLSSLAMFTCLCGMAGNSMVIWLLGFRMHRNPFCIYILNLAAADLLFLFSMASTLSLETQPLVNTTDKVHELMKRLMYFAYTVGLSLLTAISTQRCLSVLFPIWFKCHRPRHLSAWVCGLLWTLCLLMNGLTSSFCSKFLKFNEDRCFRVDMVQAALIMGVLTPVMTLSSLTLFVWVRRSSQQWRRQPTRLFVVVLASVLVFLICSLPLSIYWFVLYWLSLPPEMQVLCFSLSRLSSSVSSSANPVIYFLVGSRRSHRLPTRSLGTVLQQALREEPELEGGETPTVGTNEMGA
Sequence of UniProt Q969F8 (whole entry, unmodified, looked up): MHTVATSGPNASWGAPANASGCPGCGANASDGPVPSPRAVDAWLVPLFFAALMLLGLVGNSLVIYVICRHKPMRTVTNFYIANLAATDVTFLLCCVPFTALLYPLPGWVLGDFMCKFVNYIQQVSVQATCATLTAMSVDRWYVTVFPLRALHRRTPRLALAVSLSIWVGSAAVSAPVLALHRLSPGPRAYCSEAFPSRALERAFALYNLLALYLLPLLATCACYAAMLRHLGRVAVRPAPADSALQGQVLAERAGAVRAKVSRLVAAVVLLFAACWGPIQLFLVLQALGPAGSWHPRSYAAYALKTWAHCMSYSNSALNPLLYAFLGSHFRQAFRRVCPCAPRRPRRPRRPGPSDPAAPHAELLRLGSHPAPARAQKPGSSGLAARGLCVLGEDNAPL
Sequence of UniProt Q16288 (whole entry, looked up): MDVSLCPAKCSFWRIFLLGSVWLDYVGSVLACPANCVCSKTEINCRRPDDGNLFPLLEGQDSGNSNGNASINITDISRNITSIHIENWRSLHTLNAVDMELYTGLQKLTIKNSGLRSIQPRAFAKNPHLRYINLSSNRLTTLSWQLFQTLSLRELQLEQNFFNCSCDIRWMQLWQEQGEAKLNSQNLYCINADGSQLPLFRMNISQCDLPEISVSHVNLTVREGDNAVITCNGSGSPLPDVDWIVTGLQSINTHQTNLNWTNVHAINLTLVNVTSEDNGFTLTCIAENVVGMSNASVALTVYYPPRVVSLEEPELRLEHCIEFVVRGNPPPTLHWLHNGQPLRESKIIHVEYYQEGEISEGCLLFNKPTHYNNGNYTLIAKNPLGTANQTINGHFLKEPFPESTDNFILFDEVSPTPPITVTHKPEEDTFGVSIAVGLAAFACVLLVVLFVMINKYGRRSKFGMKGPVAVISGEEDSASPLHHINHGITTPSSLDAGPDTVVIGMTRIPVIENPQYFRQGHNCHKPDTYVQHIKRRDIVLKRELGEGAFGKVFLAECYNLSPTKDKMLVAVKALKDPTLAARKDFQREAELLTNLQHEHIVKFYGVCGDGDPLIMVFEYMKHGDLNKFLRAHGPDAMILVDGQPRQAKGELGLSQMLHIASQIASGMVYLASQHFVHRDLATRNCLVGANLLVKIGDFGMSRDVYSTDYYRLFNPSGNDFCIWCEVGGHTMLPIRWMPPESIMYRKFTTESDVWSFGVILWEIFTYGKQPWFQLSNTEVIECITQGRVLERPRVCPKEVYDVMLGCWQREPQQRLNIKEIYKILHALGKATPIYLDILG
Sequence of UniProt Q9NSD7 (whole entry, unmodified, looked up): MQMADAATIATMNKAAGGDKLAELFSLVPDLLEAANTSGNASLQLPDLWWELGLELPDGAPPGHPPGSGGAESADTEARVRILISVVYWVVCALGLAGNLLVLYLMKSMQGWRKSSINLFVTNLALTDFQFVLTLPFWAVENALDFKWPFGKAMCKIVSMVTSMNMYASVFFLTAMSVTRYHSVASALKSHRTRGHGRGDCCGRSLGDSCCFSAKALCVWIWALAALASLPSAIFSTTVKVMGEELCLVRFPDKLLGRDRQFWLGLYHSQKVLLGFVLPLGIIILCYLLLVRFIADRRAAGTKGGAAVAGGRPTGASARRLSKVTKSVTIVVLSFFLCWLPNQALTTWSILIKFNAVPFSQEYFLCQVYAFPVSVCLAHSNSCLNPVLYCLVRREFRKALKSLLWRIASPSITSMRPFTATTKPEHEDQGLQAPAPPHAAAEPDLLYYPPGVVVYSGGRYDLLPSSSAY

Structure (SMILES) | target or system | test | test system | conditions | scale | quantity | value
CCOC(=O)C(CC)(CCCSCCOCCNc1ccc([N+](=O)[O-])c2nonc12)NC(=O)c1ccc(C2CC2)c(Cc2ccc(F)cc2)n1 (stereo not drawn) | CNR1 | cAMP, agonist |  |  |  | Emax | 152%
CNC(=N)NCCC[C@H](NC(=O)[C@H](CC(C)C)NC(=O)NNC(=O)[C@H](Cc1ccccc1)NC(=O)[C@@H](NC(=O)[C@H](CC(N)=O)NC(=O)[C@@H]1C[C@@H](O)CN1C(=O)[C@@H](Cc1ccc(O)cc1)NC(C)=O)[C@@H](C)O)C(=O)N[C@@H](Cc1c[nH]c2ccccc12)C(N)=O | KiSS-1 receptor (KISS1R, Homo sapiens, UniProt Q969F8, N119A) | inositol phosphate, agonist | HEK293 |  |  | Emax | 94.1%
COc1cc(C2C(NC(=O)c3ccc(NC(=O)OC(C)(C)C)cc3)(C(=O)O)C(c3ccc(OC(=O)c4cccs4)c(OC)c3)C2(NC(=O)c2ccc(NC(=O)OC(C)(C)C)cc2)C(=O)O)ccc1OC(=O)c1cccs1 (stereo not drawn) | GLP1R (Homo sapiens, UniProt P43220, V229A) | cAMP accumulation, agonist |  | receptor mutant | relative to: wild type | Emax | 104 ± 8.02%
CCc1cc(NC(=O)COc2cc(Cl)ccc2Cl)n(CC(F)(F)F)n1 | Kir3.1/Kir3.4 | thallium flux, activator | HEK293 |  | relative to: standard compound | Emax | 54%
CC[C@H](C)[C@@H]1NC(=O)[C@H](Cc2ccccc2)NC(=O)[C@H](CCC(=O)O)NC(=O)[C@H](CCCNC(=N)N)NC(=O)CNC(=O)[C@@H](NC(=O)[C@H](CC(C)C)NC(=O)[C@H](CCCNC(=N)N)NC(=O)[C@@H](NC(=O)CNC(=O)[C@H](Cc2ccc(O)cc2)NC(=O)[C@@H]2CCCN2C(=O)[C@H](C)NC(=O)[C@H](C)NC(=O)[C@@H](N)CCCNC(=N)N)C(C)C)CSSC[C@@H]2NC(=O)[C@@H](NC(=O)[C@H](CO)NC(=O)[C@H](CO)NC(=O)[C@H](CO)NC(=O)[C@H](CC(C)C)NC(=O)CNC(=O)[C@H](C)NC(=O)[C@H](CC(C)C)NC(=O)[C@@H](NC(=O)[C@@H](N)CC(=O)O)C(C)C)CSSC[C@H](NC(=O)CNC(=O)[C@H](Cc3c[nH]c4ccccc34)NC(=O)[C@H](CCCCN)NC2=O)C(=O)N[C@@H](CO)C(=O)N[C@@H](CCCCN)C(=O)N[C@@H](CO)C(=O)N[C@@H](CCC(=O)O)C(=O)N[C@@H]([C@@H](C)CC)C(=O)N[C@@H](CO)C(=O)N[C@@H](CO)C(=O)N[C@@H](CC(C)C)C(=O)N[C@H](C(=O)O)CSSC[C@@H](C(=O)NCC(=O)NCC(=O)N[C@@H](CO)C(=O)N[C@@H](CCCNC(=N)N)C(=O)N[C@@H](Cc2c[nH]c3ccccc23)C(=O)O)NC(=O)[C@H]([C@@H](C)O)NC(=O)[C@H](Cc2ccccc2)NC(=O)[C@H]([C@@H](C)CC)NC(=O)[C@H](C(C)C)NC(=O)[C@H](C)NC(=O)[C@H](CCCNC(=N)N)NC1=O | RXFP3 (Homo sapiens, UniProt Q9NSD7, S159A) |  | HEK-293T |  | relative to: wild type | Emax | 76.4 ± 4.27%
Cc1ncsc1-c1ccc(C(C)NC(=O)C2CC(O)CN2C(=O)C(NC(=O)CCCCCCCCCCN2CCCC(Nc3ncc(Cl)c(Nc4ccccc4S(=O)(=O)C(C)C)n3)C2)C(C)(C)C)cc1 (stereo not drawn) | 22Rv1 | RNA-seq, item: ZNF137P mRNA |  | concentration not given | relative to: DMSO | log2 fold change | -2.69
COC1CN([C@H]2CC[C@H]([C@@]3(C)Oc4c(Cl)cc(C(=O)NCc5c(SC)cc(C)[nH]c5=O)c(C)c4O3)CC2)C1 |  | RNA-seq, item: mouse SHB homolog | mouse, HT-1376 xenograft, whole blood | dose not given, PRC2 target gene | relative to: vehicle | log2 fold change | 1.17
Cc1nn(-c2cccc(N)c2)c(=O)c2cnc(Nc3ccc(N4CCNCC4)cc3)nc12 | NTRK3 (Homo sapiens, UniProt Q16288) | kinase activity, inhibitor, SelectScreen kinase profiling |  |  |  | IC50 | > 10000 nM
COc1ccc(C2(C(=O)N3CCC(Nc4nc5ccccc5c(=O)[nH]4)CC3)CC2)cc1 | MRGPRD (Homo sapiens, UniProt Q8TDS7, Q182A) | miniGq recruitment, agonist, BRET | HEK293T | Q182A mutant | relative to: wild type | Emax | 68 ± 9.11%
O=C(COc1cccc(Cl)c1Cl)Nc1cc(C2CC2)nn1C1CCOCC1 | Kir3.1/Kir3.4 | thallium flux, activator | HEK293 |  | relative to: standard compound | Emax | 68%
CCOC(=O)[C@](CC)(CCCSCCOCCOCCNC(=O)CCCCCN1C(=CC=CC=CC2=[N+](C)c3ccc4ccccc4c3C2(C)C)C(C)(C)c2c1ccc1ccccc21)NC(=O)c1ccc(C2CC2)c(Cc2ccc(F)cc2)n1.[Cl-] | CNR1 | cAMP, agonist |  |  |  | Emax | 118%
CNS(=O)(=O)Nc1nccc(Cc2c(C)c3ccc(Oc4ncccc4F)cc3oc2=O)c1F | RT-112/84 | cell viability, inhibitor, CellTiter-Glo |  | 7 days |  | IC50 | 8.16 nM
